Assay results collected from several papers.
Each line is one published result; not all experiments were run side by side. Numbers after ± are the reported error.

| SMILES | target or system | assay | test system | setting | scale | quantity | value |
| --- | --- | --- | --- | --- | --- | --- | --- |
| CC(=O)N1CCC(C(=O)N2CCN3C(=O)c4cc(-c5ccccc5)ccc4NC(=O)C3C2)CC1 (centres unmarked) | Salmonella typhimurium | – | TA1535 | 1581 µg/plate | – | revertants per plate | 17 |
| COc1cccc(-c2n[nH]c(SCc3ccccn3)n2)c1OC | Salmonella typhimurium | Ames test, preincubation | TA1535 | 0.063 mg/plate, with rat liver S9 | – | revertant colonies per plate | 17 |
| O=[N+]([O-])c1ccc(N2CCC(NCCC(O)c3ccc(F)c4ccccc34)CC2)c(C(F)(F)F)c1 (centres unmarked) | Salmonella typhimurium | genotoxicity, SOS/umu test | TA1535/pSK1002 | 0.008 mg/mL, 4 h, with S9, full range | – | induction factor | 0.88 |
| Cc1cc(C(=O)NC(C)(C)COc2cccc3c2C(N)=NS(=O)(=O)N3)cc(C)n1 | Salmonella typhimurium | Ames test, confirmatory | TA100 | 3333 µg/plate | baseline: solvent control | revertant ratio | 0.9 |
| O=[N+]([O-])c1ccc(NC2CCNCC2)c(C(F)(F)F)c1 | Salmonella typhimurium | genotoxicity, SOS/umu test | TA1535/pSK1002 | 0.063 mg/mL, 4 h, without S9, full range | – | induction factor | 0.6 |
| N#C[C@@]1(n2ccc(N)nc2=O)O[C@H](CO)[C@@H](O)[C@H]1O | Salmonella typhimurium | – | TA1537 | 5 µM, without S9 | – | viability | 93% |
| O=NN1CCN(C2CCCC2)CC1 | Salmonella typhimurium | mutagenicity, Ames plate incorporation | TA100 | 1500 µg/plate, 3 d, without S9, methanol | – | revertant colonies per plate | 162 ± 19 |
| OC(CCN1CC=C(c2ccc(F)cc2)CC1)c1ccc(F)c2ccccc12 (centres unmarked) | Salmonella typhimurium | genotoxicity, SOS/umu test | TA1535/pSK1002 | 0.016 mg/mL, 4 h, without S9, full range | – | induction factor | 2.7 |
| CNC(=O)c1c(N(C)N=O)ncn1C | Salmonella typhimurium | mutagenicity, Ames plate incorporation | TA1535 | 50 µg/plate, without S9, methanol | – | revertant colonies per plate | 20.3 ± 3 |
| COc1ccccc1C(=O)NC1CCCN(Cc2cccc(-c3ccc(C)c(Cl)c3)c2)C1 (centres unmarked) | Vero-E6 | CellTiter-Glo ATP | – | concentration not given, 72 h, first round 5-point | baseline: DMSO 0%, hyamine -100%, more negative, more toxic | cytotoxicity efficacy | -11.5% |
| CN(CC(C)(C)C)N=O | Salmonella typhimurium | mutagenicity, Ames plate incorporation | TA1537 | 150 µg/plate, without S9, methanol | – | revertant colonies per plate | 9.3 ± 2 |
| COc1ccc(Cl)cc1NC(=O)CSc1nc2ccccc2nc1N1CCCCC1 | Vero-E6 | CellTiter-Glo ATP | – | concentration not given, 72 h, first round 5-point | baseline: DMSO 0%, hyamine -100%, more negative, more toxic | cytotoxicity efficacy | 0% |
| O=[N+]([O-])c1ccc(N2CCN(CCC(O)c3ccc(F)cc3)CC2)c(C(F)(F)F)c1 (centres unmarked) | Salmonella typhimurium | SOS/umu test | TA1535/pSK1002 | 0.001 mg/mL, 4 h, without S9 activation | – | survival | 114% |
| CC(C)N(N=O)C(C)C | Salmonella typhimurium | mutagenicity, Ames plate incorporation | TA1537 | 150 µg/plate, without S9, methanol | – | revertant colonies per plate | 12.3 ± 4 |

A few entries again:
| SMILES | target or system | assay | test system | setting | scale | quantity | value |
| --- | --- | --- | --- | --- | --- | --- | --- |
| COc1cccc(-c2n[nH]c(SCc3ccccn3)n2)c1OC | Salmonella typhimurium | Ames test, preincubation | TA1535 | 0.063 mg/plate, with rat liver S9 | – | revertant colonies per plate | 17 |
